Published values gathered from unrelated publications.
Every numbered part comes from another study and shows a few of its results, in no order.

Block 1 — method: protein binding microarray; form: double-stranded DNA, one strand shown; sample: in vitro; concentration: not given; baseline: not given; reading: higher = stronger binding; endpoint: E-score
Target: Histone acetyltransferase KAT6A, winged helix 1, GST fusion (KAT6A, Homo sapiens, UniProt Q92794, residues 1-85)
Notes: 8-mer, flanks averaged, mean of 2 arrays, mostly near background
Target sequence (chain): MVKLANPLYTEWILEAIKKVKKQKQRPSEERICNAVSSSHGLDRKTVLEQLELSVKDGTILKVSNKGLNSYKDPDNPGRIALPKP
Oligonucleotide = CTCAATTC; value = -0.179
Oligonucleotide = ACAGTGTG; value = -0.15
Oligonucleotide = GGGTGCAC; value = -0.0566

Block 2 — method: protein-binding microarray; form: double-stranded DNA, one strand shown; sample: in vitro; concentration: not given; reading: higher = stronger binding; endpoint: E-score
Target: Hepatocyte nuclear factor 3-beta, forkhead domain (FOXA2, Homo sapiens, UniProt Q9Y261, residues 142-269)
Notes: k-mer, scored over probes, only values ≥0.25
Residues (chain): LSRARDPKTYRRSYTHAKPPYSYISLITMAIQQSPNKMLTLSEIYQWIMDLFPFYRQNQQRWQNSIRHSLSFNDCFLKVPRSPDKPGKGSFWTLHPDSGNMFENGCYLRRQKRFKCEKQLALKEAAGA
Oligonucleotide = AATACAGT; value = 0.362
Oligonucleotide = CGTAAACA; value = 0.342
Oligonucleotide = CATAATCA; value = 0.338

Further values, each from its own experiment
Substance = PhoQ, residues 284 288 289 292 302 303 SLCLSL; target = PhoP, residues 12 14 15 18 19 NYFTV (Escherichia coli, UniProt P23836); assay = Sort-seq, refers to: YFP reporter; test system = E. coli; setting = PhoQ-PhoP variant library, added: 10 µM Mg2+; how to read = baseline: high Mg2+ state, higher = stronger signaling; endpoint = fold induction; value = 9
Substance = UGCAUGG; target = PABPC1L2, full length, GST fusion (mouse, UniProt A0ABA7IW68); assay = RNAcompete; test system = RNA, in vitro; setting = 20 nM, 7-mer, probes averaged, single round; how to read = baseline: mean of 7-mers, higher = stronger binding; endpoint = 7-mer Z-score; value = 0.0189
